Measurements gathered from unrelated publications.
Every numbered part comes from another study and shows a few of its results, in no order.
Sequence of UniProt Q9NSY1 (whole entry, looked up): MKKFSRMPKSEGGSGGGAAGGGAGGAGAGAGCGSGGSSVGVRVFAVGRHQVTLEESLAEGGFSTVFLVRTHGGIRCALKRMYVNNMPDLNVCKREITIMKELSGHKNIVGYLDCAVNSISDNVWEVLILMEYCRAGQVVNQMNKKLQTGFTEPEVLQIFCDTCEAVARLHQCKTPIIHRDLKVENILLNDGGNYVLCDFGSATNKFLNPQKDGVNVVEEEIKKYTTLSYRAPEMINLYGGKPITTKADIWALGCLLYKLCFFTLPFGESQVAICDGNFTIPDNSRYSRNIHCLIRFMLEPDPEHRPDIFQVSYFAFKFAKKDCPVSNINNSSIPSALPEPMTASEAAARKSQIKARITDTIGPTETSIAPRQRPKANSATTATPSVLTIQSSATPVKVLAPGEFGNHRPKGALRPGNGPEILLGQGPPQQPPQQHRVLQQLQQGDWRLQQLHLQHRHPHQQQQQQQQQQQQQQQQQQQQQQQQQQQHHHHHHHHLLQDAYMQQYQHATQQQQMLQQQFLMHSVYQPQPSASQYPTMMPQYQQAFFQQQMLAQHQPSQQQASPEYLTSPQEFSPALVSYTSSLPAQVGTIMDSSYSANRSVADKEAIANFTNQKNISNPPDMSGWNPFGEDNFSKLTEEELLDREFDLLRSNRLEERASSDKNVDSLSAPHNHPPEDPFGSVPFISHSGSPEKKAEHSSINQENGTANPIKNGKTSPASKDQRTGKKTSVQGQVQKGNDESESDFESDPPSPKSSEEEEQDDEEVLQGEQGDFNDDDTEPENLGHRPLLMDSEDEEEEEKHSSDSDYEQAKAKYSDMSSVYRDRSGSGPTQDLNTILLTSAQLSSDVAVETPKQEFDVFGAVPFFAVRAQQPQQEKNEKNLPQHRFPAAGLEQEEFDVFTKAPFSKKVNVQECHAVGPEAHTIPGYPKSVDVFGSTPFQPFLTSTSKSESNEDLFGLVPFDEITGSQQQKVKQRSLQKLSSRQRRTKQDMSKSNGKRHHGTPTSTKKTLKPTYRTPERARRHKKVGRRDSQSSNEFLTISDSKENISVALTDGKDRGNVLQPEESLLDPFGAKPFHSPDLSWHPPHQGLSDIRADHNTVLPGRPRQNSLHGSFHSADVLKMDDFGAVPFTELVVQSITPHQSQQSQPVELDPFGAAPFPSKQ
Sequence of UniProt Q12851 (whole entry, looked up): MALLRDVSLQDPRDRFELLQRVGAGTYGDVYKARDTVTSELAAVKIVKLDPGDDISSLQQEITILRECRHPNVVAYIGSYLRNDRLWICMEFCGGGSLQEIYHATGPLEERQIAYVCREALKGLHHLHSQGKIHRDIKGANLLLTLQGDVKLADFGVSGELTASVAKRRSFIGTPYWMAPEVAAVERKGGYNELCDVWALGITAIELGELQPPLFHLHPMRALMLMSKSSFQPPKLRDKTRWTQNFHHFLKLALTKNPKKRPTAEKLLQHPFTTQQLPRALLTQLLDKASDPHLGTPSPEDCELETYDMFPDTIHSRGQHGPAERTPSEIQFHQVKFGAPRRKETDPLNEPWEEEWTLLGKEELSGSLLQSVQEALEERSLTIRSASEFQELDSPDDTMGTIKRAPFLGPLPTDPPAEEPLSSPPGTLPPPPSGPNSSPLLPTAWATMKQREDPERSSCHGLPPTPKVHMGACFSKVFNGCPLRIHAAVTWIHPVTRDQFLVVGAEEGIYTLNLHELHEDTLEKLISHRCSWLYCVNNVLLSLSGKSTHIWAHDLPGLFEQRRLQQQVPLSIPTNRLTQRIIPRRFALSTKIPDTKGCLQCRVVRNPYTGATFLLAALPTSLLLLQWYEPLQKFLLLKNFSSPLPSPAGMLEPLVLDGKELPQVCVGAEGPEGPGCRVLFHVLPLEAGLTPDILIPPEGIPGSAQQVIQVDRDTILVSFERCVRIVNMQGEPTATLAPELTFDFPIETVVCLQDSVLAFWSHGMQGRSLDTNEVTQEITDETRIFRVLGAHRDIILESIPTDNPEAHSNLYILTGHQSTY
Sequence of UniProt P29597 (whole entry, looked up): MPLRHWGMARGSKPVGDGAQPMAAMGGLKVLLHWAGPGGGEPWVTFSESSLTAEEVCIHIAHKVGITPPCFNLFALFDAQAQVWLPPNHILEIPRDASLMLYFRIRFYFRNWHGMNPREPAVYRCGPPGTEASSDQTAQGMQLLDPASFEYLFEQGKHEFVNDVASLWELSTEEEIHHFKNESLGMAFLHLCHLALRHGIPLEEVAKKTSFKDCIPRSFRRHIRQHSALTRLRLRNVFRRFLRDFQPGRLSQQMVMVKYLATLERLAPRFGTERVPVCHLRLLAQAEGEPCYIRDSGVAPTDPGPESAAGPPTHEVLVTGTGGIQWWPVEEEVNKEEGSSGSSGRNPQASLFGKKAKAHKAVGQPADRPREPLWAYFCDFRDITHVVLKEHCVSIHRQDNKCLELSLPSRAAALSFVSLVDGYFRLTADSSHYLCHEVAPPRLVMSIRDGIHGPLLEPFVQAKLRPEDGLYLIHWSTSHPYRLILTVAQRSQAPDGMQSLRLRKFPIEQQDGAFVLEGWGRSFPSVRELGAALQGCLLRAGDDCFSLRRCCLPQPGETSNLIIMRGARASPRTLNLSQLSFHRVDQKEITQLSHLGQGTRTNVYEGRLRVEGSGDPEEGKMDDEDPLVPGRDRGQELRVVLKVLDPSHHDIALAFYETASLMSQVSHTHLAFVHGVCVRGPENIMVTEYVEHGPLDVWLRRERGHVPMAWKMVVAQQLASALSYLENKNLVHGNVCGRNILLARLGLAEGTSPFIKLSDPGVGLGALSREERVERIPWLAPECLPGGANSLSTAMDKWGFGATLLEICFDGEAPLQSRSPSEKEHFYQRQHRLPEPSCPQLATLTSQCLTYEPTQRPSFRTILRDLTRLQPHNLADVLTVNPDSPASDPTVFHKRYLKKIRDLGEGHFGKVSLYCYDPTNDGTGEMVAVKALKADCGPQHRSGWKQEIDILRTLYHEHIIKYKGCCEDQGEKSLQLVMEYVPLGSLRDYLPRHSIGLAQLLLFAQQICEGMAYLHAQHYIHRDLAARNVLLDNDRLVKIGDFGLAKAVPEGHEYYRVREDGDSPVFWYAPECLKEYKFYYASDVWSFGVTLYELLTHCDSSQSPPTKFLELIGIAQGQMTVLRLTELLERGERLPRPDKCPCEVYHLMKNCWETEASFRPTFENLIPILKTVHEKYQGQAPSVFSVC
Sequence of UniProt Q9H2K8 (whole entry, looked up): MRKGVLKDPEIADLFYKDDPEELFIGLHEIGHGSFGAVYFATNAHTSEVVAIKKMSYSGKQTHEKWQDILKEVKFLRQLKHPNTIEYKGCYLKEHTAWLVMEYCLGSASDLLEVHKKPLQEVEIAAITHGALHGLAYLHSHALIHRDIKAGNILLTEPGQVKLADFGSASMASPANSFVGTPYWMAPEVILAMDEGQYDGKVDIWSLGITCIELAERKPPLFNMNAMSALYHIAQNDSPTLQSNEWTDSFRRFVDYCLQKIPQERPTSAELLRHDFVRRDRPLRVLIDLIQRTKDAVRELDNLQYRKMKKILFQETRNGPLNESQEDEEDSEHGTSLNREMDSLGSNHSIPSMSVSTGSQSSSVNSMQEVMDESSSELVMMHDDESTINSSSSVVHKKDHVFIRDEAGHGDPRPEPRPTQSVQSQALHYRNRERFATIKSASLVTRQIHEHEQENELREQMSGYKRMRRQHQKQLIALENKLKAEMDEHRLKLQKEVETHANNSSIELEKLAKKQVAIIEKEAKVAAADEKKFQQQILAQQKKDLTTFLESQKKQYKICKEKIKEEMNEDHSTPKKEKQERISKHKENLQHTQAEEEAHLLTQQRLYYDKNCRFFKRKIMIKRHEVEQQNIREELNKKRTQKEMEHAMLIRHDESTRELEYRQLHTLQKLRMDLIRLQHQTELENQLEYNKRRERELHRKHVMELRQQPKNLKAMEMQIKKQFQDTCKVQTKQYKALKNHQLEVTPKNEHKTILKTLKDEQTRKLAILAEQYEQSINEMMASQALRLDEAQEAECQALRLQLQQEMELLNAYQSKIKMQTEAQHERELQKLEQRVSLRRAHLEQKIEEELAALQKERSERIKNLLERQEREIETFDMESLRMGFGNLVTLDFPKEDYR

Series 1 — mode: agonist
Target: Beta-1 adrenergic receptor (ADRB1, Homo sapiens, UniProt P08588)
Sequence of UniProt P08588 (whole entry, looked up): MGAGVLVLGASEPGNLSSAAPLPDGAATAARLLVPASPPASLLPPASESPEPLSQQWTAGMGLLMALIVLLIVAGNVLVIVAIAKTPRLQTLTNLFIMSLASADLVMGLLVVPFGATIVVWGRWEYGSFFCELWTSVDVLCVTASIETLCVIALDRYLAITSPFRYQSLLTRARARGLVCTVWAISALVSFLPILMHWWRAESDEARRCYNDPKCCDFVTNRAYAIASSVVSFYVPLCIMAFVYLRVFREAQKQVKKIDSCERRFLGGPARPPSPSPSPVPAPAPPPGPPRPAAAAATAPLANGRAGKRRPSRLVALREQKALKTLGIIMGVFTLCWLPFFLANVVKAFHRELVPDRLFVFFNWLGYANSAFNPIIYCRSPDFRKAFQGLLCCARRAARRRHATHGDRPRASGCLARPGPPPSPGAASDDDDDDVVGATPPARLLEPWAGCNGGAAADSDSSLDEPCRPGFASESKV
Structure (SMILES)	EC50 [nM]
O=C(Nc1ccc([C@@H](O)[C@H]2COCC(=O)N2CC2CC2)cc1)c1ccc(F)cc1	≥ 100000
N#Cc1cc2cc(CN3CCC(Nc4ncnc5sc(CC(F)(F)F)cc45)CC3)c(O)cc2n1Cc1cn[nH]c1	≥ 100000
Cc1ccc(CNc2ncnc3[nH]ncc23)o1	≥ 100000
Clc1cccc(-c2c[nH]c([C@@H]3COCCN3Cc3cnc4ccccc4c3)n2)c1	≥ 100000

Series 2 — method: phase 2a clinical trial
Structure (SMILES): CC(C)n1cnc(-c2ccc(F)cc2)c1-c1ncc(C(=O)Nc2ccc(N3CCN(C)CC3)cc2)[nH]1
Species: patients with idiopathic pulmonary fibrosis
test	setting	patients with treatment-emergent adverse events [%]
item: interstitial lung disease	dose not given, Grade 5, all drug arms	0
item: electrocardiogram T wave abnormal	dose not given, Grade 3, all drug arms total	0
item: carbon dioxide decreased	60 mg once daily, Grade 4	0
item: benign prostatic hyperplasia	dose not given, Grade 2, maximum intensity, all drug arms total	0

Series 3 — observed: cell-free assay; method: competition with immobilised ligand; concentration: 1 µM
SMILES: NS(=O)(=O)c1cc(NC(=O)Cc2ccccc2)ccc1Oc1cccc(Cl)c1
target	remaining binding [%]
Hepatocyte growth factor receptor (MET, Homo sapiens, UniProt P08581, Y1235D)	100
Myosin light chain kinase family member 4 (MYLK4, Homo sapiens, UniProt Q86YV6)	93
Wee1-like protein kinase (WEE1, Homo sapiens, UniProt P30291)	75
MAP kinase-interacting serine/threonine-protein kinase 2 (MKNK2, Homo sapiens, UniProt Q9HBH9)	86
Non-receptor tyrosine-protein kinase TYK2, JH1 (TYK2, Homo sapiens, UniProt P29597)	90
Mitogen-activated protein kinase kinase kinase kinase 2 (MAP4K2, Homo sapiens, UniProt Q12851)	84
Casein kinase II subunit alpha' (CSNK2A2, Homo sapiens, UniProt P19784)	100
Serine/threonine-protein kinase TAO3 (TAOK3, Homo sapiens, UniProt Q9H2K8)	75
RAC-beta serine/threonine-protein kinase (AKT2, Homo sapiens, UniProt P31751)	100
Receptor-type tyrosine-protein kinase FLT3 (FLT3, Homo sapiens, UniProt P36888, D835V/ITD)	53
Serine/threonine-protein kinase 36 (STK36, Homo sapiens, UniProt Q9NRP7)	100
Epidermal growth factor receptor (EGFR, Homo sapiens, UniProt P00533, del746-750)	58
BMP-2-inducible protein kinase (BMP2K, Homo sapiens, UniProt Q9NSY1)	94
Tyrosine-protein kinase HCK (HCK, Homo sapiens, UniProt P08631)	54

Series 4 — observed: uptake; mode: inhibitor
Target: Synaptic vesicular amine transporter (SLC18A2, Homo sapiens, UniProt Q05940)
Sequence of UniProt Q05940 (whole entry, looked up): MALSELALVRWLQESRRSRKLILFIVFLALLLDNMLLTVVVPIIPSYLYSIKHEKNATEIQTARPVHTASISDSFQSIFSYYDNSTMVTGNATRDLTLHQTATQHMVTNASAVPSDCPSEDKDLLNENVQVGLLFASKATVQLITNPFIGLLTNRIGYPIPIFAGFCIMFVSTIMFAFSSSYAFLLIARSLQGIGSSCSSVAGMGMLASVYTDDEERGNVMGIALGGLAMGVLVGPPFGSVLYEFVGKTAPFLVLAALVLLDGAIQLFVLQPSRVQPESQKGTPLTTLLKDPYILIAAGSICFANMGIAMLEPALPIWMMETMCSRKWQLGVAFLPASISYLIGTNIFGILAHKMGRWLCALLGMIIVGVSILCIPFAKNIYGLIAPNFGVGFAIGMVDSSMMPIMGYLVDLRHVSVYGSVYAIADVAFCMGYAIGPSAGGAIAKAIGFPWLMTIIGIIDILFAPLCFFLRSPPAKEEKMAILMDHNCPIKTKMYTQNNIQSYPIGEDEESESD
SMILES	IC50 [nM]
Oc1ccc(CCCCNC[C@H](O)c2ccc(O)c(O)c2)cc1	20
COc1cc2c(cc1OC)[C@H]1[C@@H](C)c3ccc(OC)c(OC)c3CN1CC2	1930
CCCN[C@H]1CCc2nc(N)sc2C1	2410

Series 5 — species: human; medium: microsomes or S9; concentration: 2 µM; time: 0.5 h
Structure (SMILES)	remaining compound [%]
COc1ccc(NC(=O)CCc2c(C)n(Cc3ccccc3)c3nc(-c4ccccc4)nn3c2=O)cc1	16.9
Cn1cncc1-c1cccc(-c2cn3cccc(C#N)c3n2)c1	85.8
COc1nc2cc(C)ccc2cc1CN(C)C1(C)CCS(=O)(=O)C1 (centres unmarked)	15.2
CC(=O)COc1cc(N2C(=O)C(C)=C(C)C2=O)c(F)cc1Cl	3.2

A few entries again (series 2):
test	setting	patients with treatment-emergent adverse events [%]
item: interstitial lung disease	dose not given, Grade 5, all drug arms	0
item: electrocardiogram T wave abnormal	dose not given, Grade 3, all drug arms total	0
item: carbon dioxide decreased	60 mg once daily, Grade 4	0
item: benign prostatic hyperplasia	dose not given, Grade 2, maximum intensity, all drug arms total	0
